# Measurements collected from several papers.
# Numbered parts are unrelated; each lists some results of a single study.

# Series 1
# Target: Interferon regulatory factor 7, full length, phosphomimetic (IRF7, Homo sapiens, UniProt Q92985, residues 1-503, S101K/S471D/S472D/S475D/S476D/S477D/S483D/S484D/S487D)
# Method: protein-binding microarray
# Form: double-stranded DNA, one strand shown
# Medium: in vitro
# Tested at: 250 nM
# Setting: 60-bp whole probe
# Added: salmon DNA 0.4 mg/ml
# Reference: random background probes
# Direction: higher = stronger binding
# All sequences stand within: GCCTAGCAC … GTCTTGATTCGCTTGACGCTGCTG
# Construct (chain): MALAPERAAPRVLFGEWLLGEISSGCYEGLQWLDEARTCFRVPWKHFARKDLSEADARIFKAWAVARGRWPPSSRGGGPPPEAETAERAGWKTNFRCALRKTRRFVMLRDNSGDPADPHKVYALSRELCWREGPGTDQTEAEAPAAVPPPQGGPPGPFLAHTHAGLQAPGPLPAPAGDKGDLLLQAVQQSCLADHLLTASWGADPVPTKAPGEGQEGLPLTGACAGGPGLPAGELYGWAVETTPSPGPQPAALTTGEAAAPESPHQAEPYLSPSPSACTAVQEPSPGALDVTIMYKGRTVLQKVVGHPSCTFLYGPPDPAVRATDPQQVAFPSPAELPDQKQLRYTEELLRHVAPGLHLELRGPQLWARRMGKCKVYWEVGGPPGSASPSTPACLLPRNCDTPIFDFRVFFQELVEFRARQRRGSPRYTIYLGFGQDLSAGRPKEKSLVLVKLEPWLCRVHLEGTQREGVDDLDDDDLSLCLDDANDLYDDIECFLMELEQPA
Oligonucleotide,log fluorescence [z-score]
TCACATTTATTTACTCTCACTGTGCTA,1.05
GACGTTTTCCTTCTCCTGACGTGCTAG,1.82
TCACATCTCTCTTAAATACTGTGCTAG,0.558
TCAATTCTCATTTCCAAACTGTGCTAG,1.63
TTAGGTTTCGGTTTTCGGTTAGTGCTA,14
GACGAACTGAGTATCGAGTCGTGCTAG,0.509
GACGGTAGCGGGTTTCGGGACGTGCTA,1.4
TCAGATTTCAATTAGAAACTGTGCTAG,1.34
TTAGAACTGAGTATGGATTAGTGCTAG,-0.105
TTAGGTTTCCTCCTGCTTTAGTGCTAG,1.13
GACAGACTGGGGTATCGGGACGTGCTA,-0.79
TTAGATATCAGTAGCGATTAGTGCTAG,-0.181
GCTTCCTCCTACCCGACCCCGTGCTAG,2.07
GCTGGTCACTCTCTGGGCTGGTGCTAG,-0.939
CCAGGGACAAAGCGGTGCGAGTGCTAG,-0.562
GACGAGATCGGGTATCGAGACGTGCTA,0.181
TTGTGTTGCTGTTTGAGGAAGTGCTAG,0.293
TTAGCACTGAGTTTCGATTAGTGCTAG,7.16
TTAGTTATCGGGACTGGATTAGTGCTA,0.347
TTAGGTATCCTGCTCCTTTAGTGCTAG,-0.27
CCACTTTTATTTTCAGTATTGTGCTAG,1.18
TTAGGTTTCGACTACCGGTTAGTGCTA,5.07
TCTTTTTATGCTTTCTTTAAGTGCTAG,1.73
CTAGTTAAGGTACACCAGCAGTGCTAG,0.862
GACGAACTGATTCTCGAGACGTGCTAG,0.337

# Series 2
# Target: Protein C-ets-1 (ETS1, Homo sapiens, UniProt P14921, residues 1-441, full length assumed)
# Method: protein-binding microarray
# Form: double-stranded DNA, one strand shown
# Medium: in vitro
# Tested at: not given
# Setting: k-mer, scored over probes, only values ≥0.25
# Direction: higher = stronger binding
# Construct (chain): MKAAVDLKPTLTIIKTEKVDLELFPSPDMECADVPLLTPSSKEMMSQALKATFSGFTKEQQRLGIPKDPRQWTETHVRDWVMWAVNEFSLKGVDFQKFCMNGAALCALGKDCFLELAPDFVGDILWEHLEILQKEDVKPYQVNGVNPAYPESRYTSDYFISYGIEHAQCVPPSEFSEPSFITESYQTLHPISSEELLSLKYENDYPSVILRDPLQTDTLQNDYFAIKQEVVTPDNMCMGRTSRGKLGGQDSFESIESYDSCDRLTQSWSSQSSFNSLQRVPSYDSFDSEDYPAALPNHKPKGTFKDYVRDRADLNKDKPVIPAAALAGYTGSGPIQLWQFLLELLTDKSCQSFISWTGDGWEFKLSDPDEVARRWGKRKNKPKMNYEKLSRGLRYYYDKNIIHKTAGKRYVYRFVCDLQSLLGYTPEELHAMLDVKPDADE
Oligonucleotide,E-score
CAGGATAG,0.308
CGGAACAC,0.363
CCGTCCGC,0.29
GTCCGGAA,0.464
CTGGCGGA,0.333
GAAATTCC,0.256
ACACCGGA,0.469
TGCGGGAA,0.256
CCGGACGC,0.463
CCGATTCC,0.351
ACCGGCAG,0.259
AGGCGGAT,0.354

# Series 3
# Target: RNA binding protein fox-1 homolog 2, RRM domain, GST-SBP tag (RBFOX2, Homo sapiens, UniProt O43251-10, residues 100-194)
# Method: RNA Bind-n-Seq
# Form: RNA
# Medium: in vitro
# Tested at: 365 nM
# Setting: natural RNA segment, single round, ends assumed
# Reference: no-protein control
# Direction: higher = stronger binding
# All sequences stand within: GGGAGUUCUACAGUCCGACGAUC … UGGAAUUCUCGGGUGCCAA
# Target sequence (chain): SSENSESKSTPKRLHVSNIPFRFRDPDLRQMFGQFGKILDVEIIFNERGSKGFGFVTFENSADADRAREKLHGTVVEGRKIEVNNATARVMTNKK
Oligonucleotide,RBNS enrichment (R)
GUUCCCUUUAGAAAACCUGCCCUGGGAAAAGACUUCUUGGUUUUGAGGAAGAUCCUUGGUUAGCGAUGAUCUUGGAGGUGGACUAAGUCCAGAGCCAUCCCUGAAGCCAG,0.406
UUACCCUGCCAGUCCCCUGCCUCACUCCACCAUGAAGGUCUCUGCUUUCCUGUGACUUGAUUGGGAUACAGGCAUUUAACUUUGGAAGGCUAGUUUGGUGCCUGCUCUGG,0.524
AAAGAGAUUCUUACUAUUACUGGAGAAUAAAUCAUUUAUUUACAUGUGAUUGUGAUUCAUCAUCCCUUAAUUAAAUAUCAAAUUAUAUUUGUGUGAAAAUGUGACAAACA,0.387
UUAUUUUUGCUGAUUUGAUGUGGUUUCAACUAACCCAAGGUCUCACAAUGUUCAAAUGGCGGCUGACUCUACAGCAUUCUGUAGGUCCCUGCCCCCCUAGCUGAAGGGGU,0.323
CUCCUGGAAGUGUCUACCCUACAUUUGUGUCAGCUCAGGGUUGCAGUGUUGCCCAGAUGCAUUUUACAUCACUGUAAAGAGAUUACUUUUGUGGUUACUACCUGGCUUGG,0.419
GGCUUUGCUGAGGCUUCCCCUUGGCCAUGUGAAAGCCCGCCUUGUUGCCUGCUUUGUGCUUUCUGCACCAGACAACCUGAUGGAACAUUUGCACCUGAGUUGUACAUUUU,0.216
GAGCUGGGCCGCACCUACCCUGGGGCCCCAGGGAGCAGGACGCUCCGGGGCCCAGCACGUUGCCCUGGGCCUGUGGCCGGAGUCGGAGUCCUCUCUCCUCCUCCUGGCUU,0.657
ACAUUGGCCUAUUAUAAUCUGUGUUGGUUAUUUUUCUCCUGUAAGCAUCCUGAUUUUUCUGUAGGAACUUUUCUUUGGCAGACCAAGUGAAGACUCAGGAAUGGUGUGCA,13.5
UGCUGCUCCUCUAGGCCUCACUCAACAACCAAGCGCCUGGAGGACGGGACAGAUGGACAGACAGCCACCCUGAGAACCCCUCUGGGAAAAUCUAUUCCUGCCACCACUGG,0.277
GUGUGGCAGCAUUGUCCCACUUCAGAUGCCAGGAGUGGGCUCAUCCUAGAGGAGCGGAGUUUUCCGAGAGGACCAUCUCCUGGUUUCCUGAAGGAGGUGGGUGGAAACGG,0.602
AAAGCUGCCCAGAACUCUGGGGAGGCAGAAUAUAUCGAAAAAGUAGUAUAUUCUGUAAAACAGAAUGCAGACGAUGUUAAGAAGGCUCUAGAUGGCGAACUUGAUGAAAA,0.361
CAAGGACUAACAUGCAAUCUGUGAAUUAAAAAUCUCAAUGCACUGUCUAGUGGAAGAUGAAUGGACAUGAUCAGUGACACCCCUGCUUGGUUUCUGGCGCUUUCAGAGAC,0.281

# Series 4
# Target: Hepatocyte nuclear factor 3-alpha (Foxa1, Mus musculus, UniProt P35582, residues 1-468, full length assumed)
# Method: EMSA with sequencing
# Form: double-stranded DNA, one strand shown
# Medium: in vitro
# Tested at: 10 and 20 nM
# Setting: whole designed probe, mean of two concentrations, ends assumed
# Reference: negative control set to 0
# Direction: higher = stronger binding
# All sequences stand within: GTGAGCGGTGCCCATTGATGGGGAAC … TTTCACTGGGATCGTGGGGAC
# Construct (chain): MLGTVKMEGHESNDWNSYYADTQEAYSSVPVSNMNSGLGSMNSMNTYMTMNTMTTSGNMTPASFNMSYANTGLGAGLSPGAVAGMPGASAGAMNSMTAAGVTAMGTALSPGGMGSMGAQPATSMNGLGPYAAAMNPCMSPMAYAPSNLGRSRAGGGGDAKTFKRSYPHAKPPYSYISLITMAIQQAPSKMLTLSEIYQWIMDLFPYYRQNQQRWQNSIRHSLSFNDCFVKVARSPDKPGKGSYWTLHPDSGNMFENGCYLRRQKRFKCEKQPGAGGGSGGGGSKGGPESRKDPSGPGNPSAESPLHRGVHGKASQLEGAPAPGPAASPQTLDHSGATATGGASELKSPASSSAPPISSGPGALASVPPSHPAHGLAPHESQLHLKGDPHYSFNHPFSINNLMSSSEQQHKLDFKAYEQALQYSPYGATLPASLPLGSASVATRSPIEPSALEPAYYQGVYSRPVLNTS
Oligonucleotide,normalised bound fraction
AATGGAATAATTCCTTTACAGGATCAGAACACGTAGGAAGCCAAATTAATAATTGAAAGCTAGATTGTTTAGCAAAGAACCAGAGCATAAGAAAGTAATTTACCTTAAGGGATATTTCAAGGCCATGAGTACAGCCTAACAGAGTGATGGAAGCAGGGACTCTTGCAGTTAAGCCACTGGAATTTGAATTCCA,-0.0288 ratio
ATCTTCCCCCTCTTCCTTGCCCCACCAGCTCACCTTCCCGGGTTATTTGCACAAAGGAAAATAAATAAAGCCGGCATTCGTTAACGCAGTTCACGCGCATACTGCTGTTTGCTCTGGATGAATCATGGTCCTTTGGCGAGGCGTGGCTCCGGGAGAGCAAAGCACCGTGTCAGGGCCATGATCCGGGGTGGCC,0.365 ratio
ATAATTTTTATTTGAAGATGCCATTTTTCAACATATTCAGATGATTGTGAGTACCATTGATTCTGTATCATATGAACAATGGCAATACCTTCCATGTTTACATAATATTAAAAACCATGTTAAGACTGAATATTTGGTGTAATGGTGCATCACATTATTCTAGCTTCCATACTAGTTGTTTTATTTGTTTGTT,0.539 ratio
ATACTGGTATTACCCACCTCACTATTATGAAGTATAACATACAGCGTGCACAGCACAGTGTCTGGCCCATTGTAGTTGCTCAATAGCTTTTAGTGTTTGCTTTTATGAGTTTGAGTCATCTTTGTGGTGAGGATTACAGACCCTGACCCCTCTACTTGAGGTAGAACCAAGTCTATGGTTTCTCAGCCTGGGC,0.27 ratio
TTACCACCTCCACCTCTGCTACTTTCTGCTCTAGAAACTACTTTAATGAAAAGAGAAAAAGCTAGTTGACTAGCATGTTGATTTTATGCCCAATGCAATTTCAGACCAACTGACTCATCCTGAAAATATTTAGCAGGGAGAAAAAAAAAAAGAAGAAAATTTTTTTTAGTGAGTAGCCCACATTATGATACTT,-0.00869 ratio
TTAACACTGTTCACTTGTATCAACATTTTACTACTTTGAGTAAAGTGTAAAAACCTATAGGTTCCTTTACCTCCTCCTTATAATTCTCTTAAAAAATTACTCACATACTTTGAGAACCATATCACACAGTATTATAATTTTTGCTTTGACCATCAAATATAATTTAGAAAATCCAACAGGATAGTTTATATTT,0.043 ratio
CCTGTGGGATAACATCAAGTGCTCTAACGTAAGTATCACTGCAGTCCTGGGAAGGGGCAGGGCGGGACTATTTGAAAACATGATGACTAAATGTAATTTCTCAAGGTATGATGACACTGTATGCAGAGTACTCAACACAAAGGGTTCAGTGTTAAATGTAGACTTACACGGGTATATGGTACCCACAACTCAA,0.0202 ratio
ATCTTCCCCCTCTTCCTTGCCCCACCAGCTCACCTTCCCGGGTTATTTGCAGATAGGAAAATAAATAAAGCCGGCATTCGTTAACCCTCTTCTGGCGCAAACTGCTGTTTGCTCTGGATGAATCATGGTCCTTTGGCGAGGCGTGGCTCCGGGAGAGCAAAGCACCGTGTCAGGGCCATGATCCGGGCTCGCC,0.34 ratio

# Some of these lines once more (series 1):
Oligonucleotide,log fluorescence [z-score]
TCACATTTATTTACTCTCACTGTGCTA,1.05
GACGTTTTCCTTCTCCTGACGTGCTAG,1.82
TCACATCTCTCTTAAATACTGTGCTAG,0.558
TCAATTCTCATTTCCAAACTGTGCTAG,1.63
TTAGGTTTCGGTTTTCGGTTAGTGCTA,14
GACGAACTGAGTATCGAGTCGTGCTAG,0.509
